Results collected from several papers.
Numbered parts are unrelated; each lists some results of a single study. Positions count from the first letter of the parent shown.

Set 1
Target: JUNB, bZIP domain (human)
Method: DHFR protein complementation
Matrix: yeast
Notes: single substitutions, most at no-binding floor
Relative to: wild-type JUN-FOS pair
Reading: higher = stronger binding
Quantity: binding fitness
Starting sequence: JUN, bZIP domain (human); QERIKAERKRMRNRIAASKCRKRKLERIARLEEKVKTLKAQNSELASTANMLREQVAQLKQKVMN; partner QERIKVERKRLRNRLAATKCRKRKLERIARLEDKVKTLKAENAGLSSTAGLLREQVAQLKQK
L52R: -1.49 natural log
I28A: -1.42 natural log
E54C: -1.37 natural log
T37H: -0.936 natural log
T48N: -1.38 natural log
E32Q: -1.35 natural log
R53D: -1.54 natural log
I28W: -1.48 natural log
K39D: -1.49 natural log
A46S: -1.11 natural log
E32L: -1.35 natural log
T48F: -1.39 natural log
S43W: -1.31 natural log
T37F: -1.08 natural log
A57N: -1.18 natural log
L52D: -1.54 natural log
Q41W: -1.64 natural log
K39C: -1.39 natural log
E32S: -1.4 natural log
A46Y: -1.22 natural log
A46R: -0.716 natural log
R30Y: -1 natural log
E44N: -1.34 natural log
L31P: -1.52 natural log
E44L: -1.21 natural log

Set 2
Target: ABI1, truncated, D143A, DHFR fusion (Arabidopsis thaliana)
Method: DHFR PCA, deep sequencing
Matrix: yeast
Notes: methotrexate growth selection, single substitutions
Added: (+)-ABA 200 µM
Relative to: wild-type fitted maximum
Reading: higher = stronger binding
Quantity: relative binding score
Starting sequence: PYL1, truncated, DHFR fusion (Arabidopsis thaliana); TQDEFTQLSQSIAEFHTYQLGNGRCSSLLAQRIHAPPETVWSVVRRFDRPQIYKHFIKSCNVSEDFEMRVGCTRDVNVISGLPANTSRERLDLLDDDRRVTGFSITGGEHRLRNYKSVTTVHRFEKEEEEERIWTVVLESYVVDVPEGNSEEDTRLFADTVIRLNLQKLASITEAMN
G23N: 98.8%
E139F: 20.7%
G107V: 16.7%
E38K: 89.6%
W41I: -10.7%
T39H: 92.9%
A13R: 101%
C25N: -7.22%
V44I: 93%
Q31G: 36.4%
W41N: -42.2%
V62I: 106%
R132D: 124%
V40C: 62.1%
F157L: 89.6%
V43C: 82.2%

Set 3
Target: CCND3, cyclin fold, Cln2 fusion (human)
Method: yeast growth competition, sequencing
Matrix: yeast
Notes: weak parent motif
Relative to: not given
Reading: higher = stronger binding
Quantity: normalised enrichment score
Starting sequence: GMNC docking peptide (human); KNAKRNLSSEFAN; partner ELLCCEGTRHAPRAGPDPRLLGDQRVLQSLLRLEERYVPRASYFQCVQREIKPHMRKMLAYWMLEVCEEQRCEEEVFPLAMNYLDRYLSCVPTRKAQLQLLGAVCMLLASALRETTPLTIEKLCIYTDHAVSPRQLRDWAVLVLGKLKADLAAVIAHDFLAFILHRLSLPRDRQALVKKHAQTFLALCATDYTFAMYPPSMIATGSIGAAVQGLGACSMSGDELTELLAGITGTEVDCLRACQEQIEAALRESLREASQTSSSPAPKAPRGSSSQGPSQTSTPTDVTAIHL
KNAKRNLSTEFAN [S9T]: 0.346
KNAKRNLSSERAN [F11R]: 0.114
KNHKRNLSSEFAN [A3H]: 0.54
KNAKRHLSSEFAN [N6H]: 0.0222
KNAKRNLTSEFAN [S8T]: -0.252
KNAKRNLSSEFLN [A12L]: 0.123
KNAKRNLSSEEAN [F11E]: 0.049
KNAKKNLSSEFAN [R5K]: 0.194
KNAKRPLSSEFAN [N6P]: 0.296
KNAVRNLSSEFAN [K4V]: -0.103
KNKKRNLSSEFAN [A3K]: 0.53
KNAKRNLSSEVAN [F11V]: 0.196
KNAKRNLSSEFSN [A12S]: 0.0981
KEAKRNLSSEFAN [N2E]: 0.436
KNAKANLSSEFAN [R5A]: 0.183
KNAKRNFSSEFAN [L7F]: 0.132
KNAKRNLRSEFAN [S8R]: 0.195
KNAKRNLSSFFAN [E10F]: -0.283
KNAKRNLSIEFAN [S9I]: 0.199
KNAKRNLSCEFAN [S9C]: 0.543
KNAKRNLSSCFAN [E10C]: 0.285
KNAKRNLSSPFAN [E10P]: 5.46e-05
KNAKRNLSSEFGN [A12G]: -0.33
KNLKRNLSSEFAN [A3L]: -0.0487
KNAKRNLSSEFQN [A12Q]: -0.119

Set 4
Target: Sal-like protein 4, full length isoform B (SALL4, Homo sapiens, UniProt Q9UJQ4-2, residues 1-616)
Method: universal PBM
Form: double-stranded DNA, one strand shown
Matrix: in vitro
Concentration: not given
Notes: 8-mer, flanks averaged, mean of replicates
Reading: higher = stronger binding
Quantity: E-score
Construct (chain): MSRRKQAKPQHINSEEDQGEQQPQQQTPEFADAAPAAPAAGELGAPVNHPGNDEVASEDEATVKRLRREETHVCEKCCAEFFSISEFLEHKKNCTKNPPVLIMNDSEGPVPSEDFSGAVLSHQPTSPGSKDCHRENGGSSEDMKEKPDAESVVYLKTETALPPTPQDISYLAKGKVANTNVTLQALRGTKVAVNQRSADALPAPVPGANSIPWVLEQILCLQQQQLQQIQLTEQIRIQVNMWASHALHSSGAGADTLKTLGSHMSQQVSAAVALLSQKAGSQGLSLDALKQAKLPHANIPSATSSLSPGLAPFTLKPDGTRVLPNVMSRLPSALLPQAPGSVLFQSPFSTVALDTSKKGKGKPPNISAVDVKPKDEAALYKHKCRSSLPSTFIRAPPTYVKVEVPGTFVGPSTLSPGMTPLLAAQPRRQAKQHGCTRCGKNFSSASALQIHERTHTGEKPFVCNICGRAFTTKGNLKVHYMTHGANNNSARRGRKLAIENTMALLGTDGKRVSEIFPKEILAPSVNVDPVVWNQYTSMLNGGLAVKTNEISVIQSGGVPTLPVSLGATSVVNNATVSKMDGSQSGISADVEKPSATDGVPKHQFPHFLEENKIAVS
CAACCAGC: -0.285
AACATCAC: 0.14
ACTGCAAC: -0.233
GCGCGAAA: 0.0722
AGTAAGGA: 0.038
ACGCTCTG: -0.177
CACGCTAA: 0.0481
CTAGACAG: -0.108
ATCAACCC: 0.077
AACATAAA: 0.307
ACATGCCT: -0.00805
AGCCGCTA: -0.217
CATTGGTC: -0.0402
GCGTCGCA: -0.13
AGCCGGAG: -0.256
AAGTAGTG: 0.0245
CCAGGAAG: -0.0955
TAGGATCA: -0.0569
CACGTCGA: -0.188
ACTCAAAG: 0.0292
TGACAACA: 0.145
GACATAGA: 0.124

Set 5
Target: Histone acetyltransferase KAT6A, winged helix 1, GST fusion (KAT6A, Homo sapiens, UniProt Q92794, residues 1-85)
Method: protein binding microarray
Form: double-stranded DNA, one strand shown
Matrix: in vitro
Concentration: not given
Notes: 8-mer, flanks averaged, mean of 2 arrays, mostly near background
Relative to: not given
Reading: higher = stronger binding
Quantity: E-score
Target sequence (chain): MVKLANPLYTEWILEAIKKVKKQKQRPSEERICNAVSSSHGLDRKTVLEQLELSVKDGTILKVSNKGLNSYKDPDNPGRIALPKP
CCCTTCCC: -0.143
AACTTGCC: -0.072
CATTGAAA: -0.171
GTAGCCCA: -0.176
ATCACGAG: -0.261
GCAGATAA: -0.0953
ACGAGTCT: -0.161
AAGCGACG: 0.313
GTAAAAAC: -0.193
ACCCTCCC: 0.107
CCAAGCCG: 0.212
ATCTGCGC: 0.175
GGTCCGGA: 0.119
CGTCTAAG: 0.0646
TTACCTAA: -0.225
ACAGTCCA: -0.243
CCCTCGCG: 0.331
ACGAGACT: -0.186
AGGTGATA: -0.209
ACCCGGCA: 0.192
GTGCCCCA: -0.111
AGAGCTTG: -0.159
AATCAATA: -0.137
CTATCAAG: -0.147
AAAACACC: -0.0417

For quick reference, copied from above (set 2):
G107V: 16.7%
W41I: -10.7%
T39H: 92.9%
W41N: -42.2%
C25N: -7.22%
E38K: 89.6%
F157L: 89.6%
R132D: 124%
V44I: 93%
G23N: 98.8%
V43C: 82.2%
V40C: 62.1%
